# Results from different studies.
# Protocols differ between the studies behind these lines. ± marks the error that the study gave.
SMILES,tested on,assay,setting,how to read,quantity,value
Cc1ccc(-c2nc3ccccc3s2)cc1NC(=O)c1cc([N+](=O)[O-])c(N2CCN(C)CC2)cc1Cl,J774.A1,cytotoxicity,,,EC50,4 ± 2.2 µM
CC(C)C[C@H](NC(=O)[C@H](Cc1ccccc1)NC(=O)c1cnccn1)B(O)O,BRD4-HiBiT cells,"BRD4 degradation rescue, inhibitor","8 h, added: dBET6 500 nM",,EC50,0.0849 µM
CCOC(=O)C1=C(C)NC2=C(C(=O)OC(c3ccc(OC)c(OC)c3)C2)C1c1ccccc1Cl (centres unmarked),J774.A1,cytotoxicity,,,EC50,> 20 µM
COc1cnc2cccc(N3CCc4c(cc(Cn5ccnc5C)cc4-c4cn(C)nc4C(F)(F)F)C3=O)c2c1,HLC1,"cell growth, inhibitor",120 h,,EC50,6.87 µM
CCc1nnc(NS(=O)(=O)c2ccc(NC(=O)c3ccc(F)cc3)cc2)s1,"Cyclin-dependent kinase 2 (CDK2, Homo sapiens, UniProt P24941)",binding,,,Kd,> 100 µM
CCOC(=O)C1=C(C)NC2=C(C(=O)OC(c3ccc(OC)c(OC)c3)C2)C1c1ccc(Cl)cc1C (mixture of isomers),J774.A1,cytotoxicity,,,EC50,> 20 µM
CC(C)C[C@H](NC(=O)CNC(=O)c1cc(Cl)ccc1Cl)B(O)O,BRD4-HiBiT cells,"BRD4 degradation rescue, inhibitor","4 h, 50% degradation rescued, added: dBET6 500 nM",,EC50,0.196 µM
Cc1nn(-c2nc3c(F)cc(F)cc3s2)c(O)c1C(c1cccc(C(F)(F)F)c1)c1c(C)nn(-c2nc3c(F)cc(F)cc3s2)c1O,THP1-Dual,"IFN reporter gene, inhibitor, luciferase reporter",added: HT-DNA,,EC50,15.9 µM
CC(=O)Nc1cccc(-c2nnc(SCC(=O)Nc3ccc(C(C)=O)cc3)n2C)c1,"Cyclin-dependent kinase 2, with cyclin A (CDK2, Homo sapiens, UniProt P24941)",,,,Kd,> 100 µM
Cc1nn(-c2nc3ccccc3[nH]2)c(O)c1C(c1ccccc1C(=O)O)c1c(C)nn(-c2nc3ccccc3[nH]2)c1O,THP1-Dual,"IFNB1 luciferase reporter, inhibitor",added: HT-DNA,,EC50,> 20 µM
COc1cccc2c1C(=O)c1c(O)c3c(c(O)c1C2=O)C[C@@](O)(C(=O)CO)C[C@@H]3O[C@H]1C[C@H](N)[C@H](O)[C@H](C)O1,PPC-1,"cell viability, MTT",72 h,,EC50,0.088 ± 0.01 µM
O=c1c(O)c(-c2ccc(O)c(O)c2)oc2cc(O)cc(O)c12,HepG2-ARE-Luc,"Nrf2-ARE reporter gene, activator",,,EC50,9.3 µM
O=C(Nc1ccc(Cl)c(Cl)c1)c1cc([N+](=O)[O-])c(F)cc1Cl,J774.A1,cytotoxicity,,,EC50,1.8 ± 0.6 µM
CCCC1=C(C(=O)OCC)C(c2ccccc2Cl)C2=C(CC(c3ccc(OC)c(OC)c3)CC2=O)N1 (mixture of isomers),J774.A1,cytotoxicity,,,EC50,> 20 µM
CC[C@H](C)[C@H](NC(=O)[C@H](CCC(=O)O)NC(=O)[C@H](CC(=O)O)NC(=O)CNC(=O)[C@H](CC(C)C)NC(=O)[C@H](CCCNC(=N)N)NC(=O)[C@H](CCCNC(=N)N)NC(=O)[C@H](CC(C)C)NC(=O)CNC(=O)[C@H](CCC(N)=O)NC(=O)[C@@H](NC(=O)[C@H](CCSC)NC(=O)[C@H](Cc1c[nH]c2ccccc12)NC(=O)[C@@H](NC(=O)[C@H](CCC(=O)O)NC(=O)[C@@H]1CCCN1C(=O)[C@H](CCCNC(=N)N)NC(C)=O)[C@@H](C)CC)[C@@H](C)O)C(=O)N[C@@H](CC(N)=O)C(=O)N[C@@H](C)C(=O)N[C@@H](Cc1ccc(O)cc1)C(=O)N[C@@H](Cc1ccc(O)cc1)C(=O)N[C@@H](C)C(=O)N[C@@H](CCCNC(=N)N)C(N)=O,KMS-34,"mitochondrial depolarization, BH3 profiling JC-1",3 h,,EC50,3.3 ± 1.7 µM
Cc1ccc(-c2nc3ccccc3s2)cc1NC(=O)c1cc([N+](=O)[O-])c(N(C)CCN(C)C)cc1Cl,J774.A1,cytotoxicity,,,EC50,1.5 µM
Cn1cc(-c2ccc(-c3cncc(Cl)c3N3CCC4(CCNC4=O)CC3)cc2)cn1,COLO 205,"microarray, item: c-Jun","concentration not given, 2 h",relative to: untreated cells,fold change in expression,1.44
COc1ccc(S(=O)(=O)N(CC(=O)O)c2ccc(N(CC(=O)O)S(=O)(=O)c3ccc(OC)cc3)c3ccccc23)cc1,SH-SY5Y Neh2-luc,reporter gene,3 h,,EC50,> 30 µM
Cc1ccc(-c2nc3ccccc3s2)cc1NC(=O)c1cc([N+](=O)[O-])c(NCCN(C)C)cc1Cl,J774.A1,cytotoxicity,,,EC50,1.9 µM
CCCC1=C(C(=O)OCC)C(c2ccc(Cl)cc2C)C2=C(CC(c3ccc(OC)c(OC)c3)CC2=O)N1 (mixture of isomers),J774.A1,cytotoxicity,,,EC50,> 20 µM
Cc1ccc(-c2nc3ccccc3o2)cc1NC(=O)c1cc([N+](=O)[O-])c(N2CCNCC2)cc1Cl,J774.A1,cytotoxicity,,,EC50,0.6 µM
O=C(NN=Cc1ccc([N+](=O)[O-])s1)C1CC(=O)N(c2ccc(F)cc2F)C1 (centres unmarked),PPC-1,"cell viability, MTT",72 h,,EC50,13.1 ± 3.4 µM
Cc1ccc(-c2nc3ccccc3o2)cc1NC(=O)c1cc([N+](=O)[O-])c(N2CCN(C)CC2)cc1Cl,J774.A1,cytotoxicity,,,EC50,2.6 ± 2.1 µM
Cc1nn(-c2nc3ccccc3s2)c(O)c1C(c1ccccc1C(=O)O)c1c(C)nn(-c2nc3ccccc3s2)c1O,THP1-Dual,"IFNB1 luciferase reporter, inhibitor",added: HT-DNA,,EC50,> 20 µM
Cc1cc(OCc2nnc(SC3CCCC3)n2-c2cccnc2)ccc1-c1ccc(S(C)(=O)=O)cc1,BRD4-HiBiT cells,"BRD4 degradation rescue, inhibitor","4 h, 50% degradation rescued, added: dBET6 500 nM",,EC50,12.2 µM
Cc1ccc(C=NNC(=O)C2CC(=O)N(c3ccc(F)cc3F)C2)cc1 (centres unmarked),PPC-1,"cell viability, MTT",72 h,,EC50,2.5 ± 0.6 µM
CCOC(=O)C1=C(C)NC2=C(C(=O)OC(c3ccccc3C)C2)C1c1ccccc1Cl (centres unmarked),J774.A1,cytotoxicity,,,EC50,> 20 µM
O=C(Nc1cncc(-c2nc3ccccc3s2)c1)c1cc([N+](=O)[O-])c(F)cc1Cl,J774.A1,cytotoxicity,,,EC50,1.3 µM
CCOC(=O)C1=C(C)NC2=C(C(=O)CC(c3ccc(OC)c(OC)c3)C2)C1c1ccc(Cl)cc1C (centres unmarked),J774.A1,cytotoxicity,,,EC50,> 20 µM
CCn1cc(-c2cc(Cn3ccnc3)cc3c2CCN([C@H](c2cc(OC)ccn2)C2CC2)C3=O)c(C(F)(F)F)n1,HEC265,cell growth,120 h,,EC50,0.648 µM
O=c1c(O)c(-c2ccc(O)cc2)oc2cc(O)cc(O)c12,HepG2-ARE-Luc,"Nrf2-ARE reporter gene, activator",,,EC50,4.95 µM
CCCC1=C(C(=O)OCC)C(c2ccc(Cl)cc2C)C2=C(CC(c3cc(OC)ccc3OC)CC2=O)N1 (centres unmarked),J774.A1,cytotoxicity,,,EC50,> 20 µM
NS(=O)(=O)OC[C@H]1C[C@@H](Nc2ccnc3cc(-c4cccc(SC(F)(F)F)c4)nn23)[C@H](O)[C@@H]1O,BRD4-HiBiT cells,"BRD4 degradation rescue, inhibitor","24 h, 50% degradation rescued, added: dBET6 500 nM",,EC50,0.0744 µM
CCN(CC)CCNC(=O)c1c(C)[nH]c(/C=C2\C(=O)Nc3ccc(F)cc32)c1C,PPC-1,"cell viability, MTT",72 h,,EC50,1.45 ± 0.07 µM
CCOC(=O)C1=C(C)NC2=C(C(=O)OC(c3ccc(OC)c(OC)c3)C2)C1c1ccc(Cl)cc1 (centres unmarked),J774.A1,cytotoxicity,,,EC50,> 20 µM
Cc1nn(-c2nc3c(F)cc(F)cc3s2)c(O)c1C(c1ccccc1C(F)(F)F)c1c(C)nn(-c2nc3c(F)cc(F)cc3s2)c1O,THP1-Dual,"IFNB1 luciferase reporter, inhibitor",added: HT-DNA,,EC50,18.4 ± 0.3 µM
CCn1cc(-c2cc(Cn3ccoc3=N)cc3c2CCN([C@@H](C)c2cc(OC)ccn2)C3=O)c(C(F)(F)F)n1,NCI-H1650,"cell growth, inhibitor",120 h,,EC50,0.145 µM
Nc1cccc2c1CN(C1CCC(=O)NC1=O)C2=O (centres unmarked),BRD4-HiBiT cells,"BRD4 degradation rescue, inhibitor","4 h, 50% degradation rescued, added: dBET6 500 nM",,EC50,7.27 µM
O=C(Nc1cncc(-c2nc3ccccc3o2)c1)c1cc([N+](=O)[O-])c(F)cc1F,J774.A1,cytotoxicity,,,EC50,1.7 µM
NS(=O)(=O)OC[C@@H]1C[C@@H](n2ccc3c(N[C@H]4CCc5ccccc54)ncnc32)C[C@@H]1O,BRD4-HiBiT cells,"BRD4 degradation rescue, inhibitor","8 h, added: dBET6 500 nM",,EC50,0.0907 µM
Cc1nn(-c2nc3ccccc3[nH]2)c(O)c1C(c1ccccn1)c1c(C)nn(-c2nc3ccccc3[nH]2)c1O,THP1-Dual,"IFNB1 luciferase reporter, inhibitor",added: HT-DNA,,EC50,> 20 µM
